{"data": "Measured values of several laboratories", "note": "A part holds a random share of what one study measured. Changes are numbered by the printed parent chain."}
{"data": "Sample 1", "target": "CCNA2, cyclin fold, Cln2 fusion (human)", "technique": "yeast growth competition, sequencing", "sample": "yeast", "notes": "strong parent motif", "relative to": "not given", "reading": "higher = stronger binding", "parent": "viral docking peptide; CKVKRKLFGSENI"}
{"Substitution": "V3A", "normalised enrichment score": 5.6}
{"Substitution": "R5K F8L", "normalised enrichment score": 0.763}
{"Substitution": "G9A", "normalised enrichment score": 5.6}
{"Substitution": "R5A L7A", "normalised enrichment score": 0.428}
{"Substitution": "N12A", "normalised enrichment score": 4.75}
{"Substitution": "F8A", "normalised enrichment score": 1.22}
{"Substitution": "R5A", "normalised enrichment score": 1.07}
{"Substitution": "S10A", "normalised enrichment score": 5.3}
{"Substitution": "C1A", "normalised enrichment score": 5.22}
{"Substitution": "R5K", "normalised enrichment score": 3.53}
{"data": "Sample 2", "target": "Sal-like protein 4, full length isoform B (SALL4, Homo sapiens, UniProt Q9UJQ4-2, residues 1-616)", "technique": "universal PBM", "form": "double-stranded DNA, one strand shown", "sample": "in vitro", "concentration": "not given", "notes": "8-mer, flanks averaged, mean of replicates", "reading": "higher = stronger binding"}
{"Oligonucleotide": "CAGGGTAA", "E-score": 0.0519}
{"Oligonucleotide": "AGTCCGGG", "E-score": -0.322}
{"Oligonucleotide": "GGACGGAA", "E-score": -0.141}
{"Oligonucleotide": "GAAGTGCA", "E-score": -0.00212}
{"Oligonucleotide": "CAGGGTTA", "E-score": -0.159}
{"Oligonucleotide": "CCTATCAG", "E-score": -0.0532}
{"Oligonucleotide": "AGGCATAA", "E-score": 0.21}
{"Oligonucleotide": "ATGAAAAG", "E-score": 0.119}
{"data": "Sample 3", "partner": "ARF19 948-1086 (Arabidopsis thaliana, UniProt Q8RYC8)", "technique": "two-hybrid", "relative to": "out of 4 tests", "reading": "higher = firmer interaction", "B1": "ARF13 (Arabidopsis thaliana, UniProt Q9FX25); chain MENNGEMNAQPELSVDITKTYMYEKLWNICAGPLCVLPKPGEKVYYFPQGHIELIENSTRDELDHIRPIFDLPSKLRCRVVAIDRKVDKNTDEVYAQISLMPDTTEVMTHNTTMDTRRPIVYFFSKILTASDVSLSGGLIIPKQYAIECFPPLDMSQPISTQNLVAKDLYGQEWSFKHVFRGTPQRHMFTSGGGWSVFATTKRLIVGDIFVLLRGENGELRFGIRRAKHQQGHIPSSVISANCMQHGVIASVVNAFKTKCMFNVVYKPSSSQFVISYDKFVDAMNNNYIVGSRFRMQFEGKDFSEKRYDGTIIGVNDMSPHWKDSEWRSLKVQWDELSPFLRPNQVSPWDIEHLIPSSDISQSSLKKKKHWLQLNEIGATLSNLWTCQEIGQRSMNSPISVPEFSYPNAIEDSKFLSGLLLNHSLLAIPNENYNSDQMIQPRKEDITTEATTSCLLFGVDLTKVSKSKDSICPIESCKKSLPQDKKFDQTQPLRSPKEVQSTEFNFTRSRIKVHMQGVAISRAVDLTAMHGYNQLIQKLEELFDLKDELRTRNQWEIVFTNNEGAEMLVGDDPWPEFCNMAKRIFICSKEEIKKMKLKNKFFQPESKALTSSDVPPNVTDN", "B2": "ARF6 790-935 (Arabidopsis thaliana, UniProt Q9ZTX8); chain SENPQSNTFVKVYKSGSFGRSLDISKFSSYHELRSELARMFGLEGQLEDPVRSGWQLVFVDRENDVLLLGDDPWPEFVSSVWCIKILSPQEVQQMGKRGLELLNSAPSSNNVDKLPSNGNCDDFGNRSDPRNLGNGIASVGGSFNY", "B3": "ARF7 1030-1164 (Arabidopsis thaliana, UniProt P93022); chain PAQTQRMRTYTKVQKRGSVGRSIDVNRYRGYDELRHDLARMFGIEGQLEDPQTSDWKLVYVDHENDILLVGDDPWEEFVNCVQSIKILSSAEVQQMSLDGNFAGVPVTNQACSGGDSGNAWRGHYDDNSATSFNR", "B4": "ARF16 570-670 (Arabidopsis thaliana, UniProt Q93YR9); chain SPCSKKVHDASGLETGHCKVFMESDDVGRTLDLSVLGSYEELSRKLSDMFGIKKSEMLSSVLYRDASGAIKYAGNEPFSEFLKTARRLTILTEQGSESVVV", "B5": "ARF4 660-788 (Arabidopsis thaliana, UniProt Q9ZTX9); chain QSSSKRICTKVHKQGSQVGRAIDLSRLNGYDDLLMELERLFNMEGLLRDPEKGWRILYTDSENDMMVVGDDPWHDFCNVVWKIHLYTKEEVENANDDNKSCLEQAALMMEASKSSSVSQPDSSPTITRV", "B6": "IAA28 (Arabidopsis thaliana, UniProt Q9XFM0); chain MEEEKRLELRLAPPCHQFTSNNNINGSKQKSSTKETSFLSNNRVEVAPVVGWPPVRSSRRNLTAQLKEEMKKKESDEEKELYVKINMEGVPIGRKVNLSAYNNYQQLSHAVDQLFSKKDSWDLNRQYTLVYEDTEGDKVLVGDVPWEMFVSTVKRLHVLKTSHAFSLSPRKHGKE", "B7": "IAA29 (Arabidopsis thaliana, UniProt Q93WC4); chain MELDLGLSLSPHKSSKLGFNFDLNKHCAIEGAASCLGTEKLRFEATFGLGNVEENCYMPKQRLFALNGQPNEEDEDPLESESSIVYDDEEENSEVVGWPPVKTCMIKYGSYHHRHIRNHHHCPYHHRGRRITAMNNNISNPTTATVGSSSSSSISSRSSMYVKVKMDGVAIARKVDIKLFNSYESLTNSLITMFTEYEDCDREDTNYTFTFQGKEGDWLLRGDVTWKIFAESVHRISIIRDRPCAYTRCLF", "B8": "ARF14 497-605 (Arabidopsis thaliana, UniProt Q9LQE8); chain SPTEIQSKQFSSTRTCTKVQMQGVTIGRAVDLSVLNGYDQLILELEKLFDLKGQLQARNQWEIAFTNNEEDKMLVGEDPWPEFCNMVKKIFIYSKEEVKNLKSRKSLSS", "Residues (chain)": "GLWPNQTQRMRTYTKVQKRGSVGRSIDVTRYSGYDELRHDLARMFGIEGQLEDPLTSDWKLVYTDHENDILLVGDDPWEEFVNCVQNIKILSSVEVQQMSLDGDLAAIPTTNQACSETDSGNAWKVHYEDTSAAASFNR"}
{"Molecule": "B1 (ARF13)", "positive tests": 0}
{"Molecule": "B2 (ARF6 790-935)", "positive tests": 0}
{"Molecule": "B3 (ARF7 1030-1164)", "positive tests": 1}
{"Molecule": "B4 (ARF16 570-670)", "positive tests": 0}
{"Molecule": "B5 (ARF4 660-788)", "positive tests": 0}
{"Molecule": "B6 (IAA28)", "positive tests": 4}
{"Molecule": "B7 (IAA29)", "positive tests": 3}
{"Molecule": "B8 (ARF14 497-605)", "positive tests": 0}
{"data": "Mixed results", "technique": "cross-linking MS"}
{"Molecule": "DDX27 (Homo sapiens, UniProt Q96GQ7)", "partner": "RBM28 (Homo sapiens, UniProt Q9NW13)", "test system": "cell fractions", "setting": "added: DSSO", "measurement": "cross-linked residues", "result": "K252 to K746"}
{"Molecule": "BNIP1 (Homo sapiens, UniProt Q12981)", "partner": "RINT1 (Homo sapiens, UniProt Q6NUQ1)", "setting": "hits only", "measurement": "interaction screen", "result": "cross-linked"}
{"Molecule": "SURF6 (Homo sapiens, UniProt O75683)", "partner": "MYBBP1A (Homo sapiens, UniProt Q9BQG0)", "test system": "cell fractions", "setting": "added: DSSO", "measurement": "cross-linked residues", "result": "K16 to K263"}
{"Molecule": "YWHAQ (Homo sapiens, UniProt P27348)", "partner": "YWHAB (Homo sapiens, UniProt P31946)", "setting": "hits only", "measurement": "interaction screen", "result": "cross-linked"}
{"note": "A few entries again (mixed results):"}
{"Molecule": "DDX27 (Homo sapiens, UniProt Q96GQ7)", "partner": "RBM28 (Homo sapiens, UniProt Q9NW13)", "test system": "cell fractions", "setting": "added: DSSO", "measurement": "cross-linked residues", "result": "K252 to K746"}
{"Molecule": "YWHAQ (Homo sapiens, UniProt P27348)", "partner": "YWHAB (Homo sapiens, UniProt P31946)", "setting": "hits only", "measurement": "interaction screen", "result": "cross-linked"}
{"Molecule": "BNIP1 (Homo sapiens, UniProt Q12981)", "partner": "RINT1 (Homo sapiens, UniProt Q6NUQ1)", "setting": "hits only", "measurement": "interaction screen", "result": "cross-linked"}
{"Molecule": "SURF6 (Homo sapiens, UniProt O75683)", "partner": "MYBBP1A (Homo sapiens, UniProt Q9BQG0)", "test system": "cell fractions", "setting": "added: DSSO", "measurement": "cross-linked residues", "result": "K16 to K263"}
